Measurements of several laboratories.
Each numbered part is a random draw from the data of one study; scales do not carry over between parts. Changes are numbered by the printed parent chain.
Sequence of UniProt P42336 (whole entry, unmodified, looked up): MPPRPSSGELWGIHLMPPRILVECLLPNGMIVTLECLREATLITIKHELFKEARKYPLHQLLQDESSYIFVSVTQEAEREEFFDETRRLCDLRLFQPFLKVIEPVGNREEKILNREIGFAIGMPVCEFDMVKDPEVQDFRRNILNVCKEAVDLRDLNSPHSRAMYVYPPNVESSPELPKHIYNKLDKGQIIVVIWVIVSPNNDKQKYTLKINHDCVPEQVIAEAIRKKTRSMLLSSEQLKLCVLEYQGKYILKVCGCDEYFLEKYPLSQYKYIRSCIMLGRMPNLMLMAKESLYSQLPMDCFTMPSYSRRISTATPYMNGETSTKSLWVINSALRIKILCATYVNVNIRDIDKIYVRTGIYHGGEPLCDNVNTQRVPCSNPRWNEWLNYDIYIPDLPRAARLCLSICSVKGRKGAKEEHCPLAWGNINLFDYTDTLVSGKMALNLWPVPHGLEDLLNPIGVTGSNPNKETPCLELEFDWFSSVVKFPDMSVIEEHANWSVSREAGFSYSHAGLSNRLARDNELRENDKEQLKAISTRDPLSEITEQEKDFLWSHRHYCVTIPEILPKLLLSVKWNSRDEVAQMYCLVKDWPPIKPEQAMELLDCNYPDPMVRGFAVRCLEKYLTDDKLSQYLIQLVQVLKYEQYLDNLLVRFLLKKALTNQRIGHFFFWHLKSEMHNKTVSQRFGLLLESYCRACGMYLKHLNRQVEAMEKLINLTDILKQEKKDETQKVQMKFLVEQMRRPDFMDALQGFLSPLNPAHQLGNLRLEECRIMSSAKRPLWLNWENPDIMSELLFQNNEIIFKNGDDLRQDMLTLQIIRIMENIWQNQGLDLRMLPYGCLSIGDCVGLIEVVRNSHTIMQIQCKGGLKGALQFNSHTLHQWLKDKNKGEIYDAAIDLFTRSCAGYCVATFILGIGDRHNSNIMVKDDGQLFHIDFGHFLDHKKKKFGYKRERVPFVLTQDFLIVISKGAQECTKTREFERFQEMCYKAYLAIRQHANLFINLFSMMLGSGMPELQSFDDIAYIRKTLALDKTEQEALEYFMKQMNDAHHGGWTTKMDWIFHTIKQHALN
Sequence of UniProt Q15375 (whole entry, looked up): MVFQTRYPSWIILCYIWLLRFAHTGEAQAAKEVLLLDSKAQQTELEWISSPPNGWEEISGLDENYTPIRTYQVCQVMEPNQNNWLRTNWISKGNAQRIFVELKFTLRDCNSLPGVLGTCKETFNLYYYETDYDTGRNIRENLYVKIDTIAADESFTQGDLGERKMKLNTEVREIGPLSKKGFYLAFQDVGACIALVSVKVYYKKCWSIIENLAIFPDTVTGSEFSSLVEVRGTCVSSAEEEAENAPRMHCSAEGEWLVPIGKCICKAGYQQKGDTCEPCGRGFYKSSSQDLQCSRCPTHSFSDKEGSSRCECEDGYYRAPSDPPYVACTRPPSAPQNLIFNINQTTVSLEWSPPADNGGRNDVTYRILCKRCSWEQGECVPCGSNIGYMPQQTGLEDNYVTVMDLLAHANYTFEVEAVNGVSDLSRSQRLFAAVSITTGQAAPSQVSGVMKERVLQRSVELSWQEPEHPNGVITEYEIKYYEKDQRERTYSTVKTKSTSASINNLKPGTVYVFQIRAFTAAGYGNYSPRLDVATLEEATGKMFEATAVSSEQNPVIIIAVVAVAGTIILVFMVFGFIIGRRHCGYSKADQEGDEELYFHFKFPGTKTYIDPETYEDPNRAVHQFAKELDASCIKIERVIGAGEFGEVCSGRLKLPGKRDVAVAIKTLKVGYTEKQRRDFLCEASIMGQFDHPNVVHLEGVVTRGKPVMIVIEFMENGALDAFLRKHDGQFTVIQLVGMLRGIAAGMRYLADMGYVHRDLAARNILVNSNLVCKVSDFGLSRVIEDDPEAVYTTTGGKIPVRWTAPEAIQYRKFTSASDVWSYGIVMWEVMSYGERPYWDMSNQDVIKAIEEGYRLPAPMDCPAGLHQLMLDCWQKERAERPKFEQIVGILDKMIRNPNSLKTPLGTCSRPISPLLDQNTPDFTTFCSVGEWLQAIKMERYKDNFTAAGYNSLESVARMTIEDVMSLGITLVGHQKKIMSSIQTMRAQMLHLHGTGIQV
Sequence of UniProt P48730 (whole entry, looked up): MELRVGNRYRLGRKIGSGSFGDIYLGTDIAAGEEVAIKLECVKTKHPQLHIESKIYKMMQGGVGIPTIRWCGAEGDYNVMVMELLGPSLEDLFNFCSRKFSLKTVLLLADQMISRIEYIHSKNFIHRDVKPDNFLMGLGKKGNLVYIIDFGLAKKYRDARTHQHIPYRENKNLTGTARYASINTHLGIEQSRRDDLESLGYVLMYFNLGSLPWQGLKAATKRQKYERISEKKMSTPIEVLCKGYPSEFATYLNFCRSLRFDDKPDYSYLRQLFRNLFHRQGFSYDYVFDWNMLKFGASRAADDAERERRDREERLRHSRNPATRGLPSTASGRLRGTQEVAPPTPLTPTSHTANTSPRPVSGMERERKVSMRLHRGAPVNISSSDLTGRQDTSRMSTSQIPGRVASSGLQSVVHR
Sequence of UniProt Q9UQB9 (whole entry, looked up): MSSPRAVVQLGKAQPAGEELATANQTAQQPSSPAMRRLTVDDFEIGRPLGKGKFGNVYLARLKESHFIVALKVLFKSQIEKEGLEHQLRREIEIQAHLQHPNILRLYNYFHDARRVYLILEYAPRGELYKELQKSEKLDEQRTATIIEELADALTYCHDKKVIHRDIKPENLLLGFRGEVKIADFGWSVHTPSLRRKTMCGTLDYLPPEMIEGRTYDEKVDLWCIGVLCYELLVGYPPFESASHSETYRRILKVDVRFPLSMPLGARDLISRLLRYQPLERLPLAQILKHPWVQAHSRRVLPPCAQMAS
Sequence of UniProt Q9H0K1 (whole entry, looked up): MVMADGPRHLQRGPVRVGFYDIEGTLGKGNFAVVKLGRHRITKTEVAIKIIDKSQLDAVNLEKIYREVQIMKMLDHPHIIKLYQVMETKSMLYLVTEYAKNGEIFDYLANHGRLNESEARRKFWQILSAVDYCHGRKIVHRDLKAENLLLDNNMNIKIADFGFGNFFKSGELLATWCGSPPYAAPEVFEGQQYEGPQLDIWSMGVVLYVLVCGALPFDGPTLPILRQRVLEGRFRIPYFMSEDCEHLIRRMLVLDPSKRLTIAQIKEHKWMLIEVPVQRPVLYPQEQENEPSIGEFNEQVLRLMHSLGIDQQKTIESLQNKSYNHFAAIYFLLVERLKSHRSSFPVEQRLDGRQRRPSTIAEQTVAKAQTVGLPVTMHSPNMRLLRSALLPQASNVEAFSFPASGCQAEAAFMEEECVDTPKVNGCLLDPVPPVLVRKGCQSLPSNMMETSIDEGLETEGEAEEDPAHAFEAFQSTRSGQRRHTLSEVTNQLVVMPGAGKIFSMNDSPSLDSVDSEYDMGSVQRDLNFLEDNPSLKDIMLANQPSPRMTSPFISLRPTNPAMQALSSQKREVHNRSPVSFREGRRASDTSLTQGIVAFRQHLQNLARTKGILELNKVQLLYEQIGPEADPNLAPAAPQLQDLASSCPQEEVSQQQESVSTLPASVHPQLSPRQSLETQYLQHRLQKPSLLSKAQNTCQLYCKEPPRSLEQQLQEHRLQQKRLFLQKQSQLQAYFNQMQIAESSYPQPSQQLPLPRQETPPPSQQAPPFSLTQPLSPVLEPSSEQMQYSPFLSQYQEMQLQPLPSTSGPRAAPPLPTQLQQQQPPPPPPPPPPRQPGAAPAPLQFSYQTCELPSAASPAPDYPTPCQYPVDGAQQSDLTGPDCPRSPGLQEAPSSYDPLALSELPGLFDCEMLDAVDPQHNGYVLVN
Sequence of UniProt O75716 (whole entry, looked up): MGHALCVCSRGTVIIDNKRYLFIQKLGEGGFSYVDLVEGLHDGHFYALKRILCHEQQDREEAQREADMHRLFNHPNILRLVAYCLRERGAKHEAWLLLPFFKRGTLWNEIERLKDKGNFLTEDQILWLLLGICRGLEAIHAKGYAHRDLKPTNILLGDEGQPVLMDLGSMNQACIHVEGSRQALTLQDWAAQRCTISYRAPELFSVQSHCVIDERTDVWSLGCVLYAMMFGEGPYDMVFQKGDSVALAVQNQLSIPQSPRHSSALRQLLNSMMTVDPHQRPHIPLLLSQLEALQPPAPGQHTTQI

Sample 1 — effect on: enzyme activity; action: inhibitor; tested at: 0.5 µM; baseline: control
Target: Protein kinase C beta type, isoform beta-II (PRKCB, Homo sapiens, UniProt P05771)
Sequence of UniProt P05771 (whole entry, looked up): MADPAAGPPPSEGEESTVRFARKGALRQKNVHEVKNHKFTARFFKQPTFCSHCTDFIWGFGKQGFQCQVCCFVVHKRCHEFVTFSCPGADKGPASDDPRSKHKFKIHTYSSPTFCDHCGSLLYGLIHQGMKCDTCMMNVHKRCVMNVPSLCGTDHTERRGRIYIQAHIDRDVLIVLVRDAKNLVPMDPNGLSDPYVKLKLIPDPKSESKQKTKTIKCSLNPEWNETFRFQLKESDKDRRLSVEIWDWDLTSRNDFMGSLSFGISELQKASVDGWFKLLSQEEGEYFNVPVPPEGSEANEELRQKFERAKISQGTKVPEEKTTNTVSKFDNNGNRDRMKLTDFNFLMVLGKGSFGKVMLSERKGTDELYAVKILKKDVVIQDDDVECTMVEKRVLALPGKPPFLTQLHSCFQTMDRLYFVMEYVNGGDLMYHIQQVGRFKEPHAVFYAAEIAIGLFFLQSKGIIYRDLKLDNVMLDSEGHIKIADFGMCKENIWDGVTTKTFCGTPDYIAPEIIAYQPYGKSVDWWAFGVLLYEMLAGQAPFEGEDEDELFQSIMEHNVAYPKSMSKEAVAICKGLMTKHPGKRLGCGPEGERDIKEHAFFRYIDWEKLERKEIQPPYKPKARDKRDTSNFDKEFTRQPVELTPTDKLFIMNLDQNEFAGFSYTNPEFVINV
For `O=C1NC(=O)c2cc(Nc3ccc(F)cc3)c(Nc3ccc(F)cc3)cc21`, the remaining activity was 15.5%.
`Cc1cccc(-c2[nH]c(C(C)(C)C)nc2-c2ccc3c(c2)OCO3)n1` has a remaining activity of 99.9%.
With `COc1cc2ncnc(Nc3ccc(F)c(Cl)c3)c2cc1OCCCN1CCOCC1` the remaining activity was 100%.
For `COc1ccc(OC)c2c(=S)c3ccccc3[nH]c12`, the remaining activity was 106%.
With `Cc1ccc(NC(=O)c2ccc(CN3CCN(C)CC3)cc2)cc1Nc1nc(-c2cccnc2)cs1` the remaining activity was 95.9%.
For `O=C(Nc1cccc(Nc2cc(Nc3cccc(C(F)(F)F)c3)ncn2)c1)C1CC1`, the remaining activity was 107%.
For `Nc1ccc2ncnc(NCCc3ccc(Oc4ccccc4)cc3)c2c1`, the remaining activity was 104%.
With `CC(C)[C@H](CO)Nc1nc(Nc2cc(N)cc(Cl)c2)c2ncn(C(C)C)c2n1` the remaining activity was 97.3%.
For `Nc1[nH]nc2nc3ccccc3nc12`, the remaining activity was 88.5%.
The remaining activity of `Nc1ncnc2n[nH]c(Nc3ccc(F)cc3)c12` is reported as 105%.
For `O=c1c2ccccc2[nH]c(=S)n1CCN1CCC(=C(c2ccc(F)cc2)c2ccc(F)cc2)CC1`, the remaining activity was 98.2%.
`O=C1NC(=O)C(c2cn(CCCn3ccnc3)c3ccccc23)=C1Nc1ccccc1` gave a remaining activity of 4.29%.
The remaining activity of `Cn1sc(=O)n(Cc2ccccc2)c1=O` is reported as 111%.
For `CCOC(=O)c1c(C)[nH]c(/C=C2\C(=O)Nc3ccccc32)c1C`, the remaining activity was 91.5%.
`C#Cc1cccc(Nc2ncnc3cc(OCCOC)c(OCCOC)cc23)c1` gave a remaining activity of 98.6%.
The remaining activity of `CNC(=O)c1cc(Oc2ccc(NC(=O)Nc3ccc(Cl)c(C(F)(F)F)c3)cc2)ccn1` is reported as 97.5%.

Sample 2 — SMILES: FC(F)(F)c1ccc2c(c1)nc(-c1cccnc1)n2C1CC1; tested at: 1 µM
It gave 91% for remaining binding (Epidermal growth factor receptor (EGFR, Homo sapiens, UniProt P00533, L858R); cell-free assay, competition with immobilised ligand).
It gave 100% for remaining binding (Mitogen-activated protein kinase kinase kinase 1 (MAP3K1, Homo sapiens, UniProt Q13233); cell-free assay, competition with immobilised ligand).
Aurora kinase C (AURKC, Homo sapiens, UniProt Q9UQB9); cell-free assay, competition with immobilised ligand — remaining binding: 100%.
Serine/threonine-protein kinase 32C (STK32C, Homo sapiens, UniProt Q86UX6); cell-free assay, competition with immobilised ligand — remaining binding: 100%.
For Serine/threonine-protein kinase 16 (STK16, Homo sapiens, UniProt O75716); cell-free assay, competition with immobilised ligand: remaining binding read 100%.
The remaining binding was 100% (Non-receptor tyrosine-protein kinase TYK2, JH1 (TYK2, Homo sapiens, UniProt P29597); cell-free assay, competition with immobilised ligand).
Casein kinase I isoform delta (CSNK1D, Homo sapiens, UniProt P48730); cell-free assay, competition with immobilised ligand — remaining binding: 100%.
The remaining binding was 100% (Phosphatidylinositol 4,5-bisphosphate 3-kinase catalytic subunit alpha isoform (PIK3CA, Homo sapiens, UniProt P42336, E542K); cell-free assay, competition with immobilised ligand).
The remaining binding was 100% (AP2-associated protein kinase 1 (AAK1, Homo sapiens, UniProt Q2M2I8); binding).
For Mitogen-activated protein kinase 11 (MAPK11, Homo sapiens, UniProt Q15759); cell-free assay, competition with immobilised ligand: remaining binding read 100%.
It gave 100% for remaining binding (Serine/threonine-protein kinase SIK2 (SIK2, Homo sapiens, UniProt Q9H0K1); cell-free assay, competition with immobilised ligand).
It gave 100% for remaining binding (Ephrin type-A receptor 7 (EPHA7, Homo sapiens, UniProt Q15375); cell-free assay, competition with immobilised ligand).
For Tyrosine-protein kinase HCK (HCK, Homo sapiens, UniProt P08631); cell-free assay, competition with immobilised ligand: remaining binding read 100%.
It gave 92% for remaining binding (Receptor-type tyrosine-protein kinase FLT3 (FLT3, Homo sapiens, UniProt P36888, D835V/ITD); cell-free assay, competition with immobilised ligand).

Sample 3 — target: CCNB1, cyclin fold, Cln2 fusion (human); method: yeast growth competition, sequencing; sample: yeast; setting: weak parent motif; baseline: not given; direction: higher = stronger binding
Starting sequence: RBL1 docking peptide (human); GSAKRRLFGEDPP
For `F8P`, “normalised enrichment score” read 0.692.
`F8Q` — result for “normalised enrichment score”: 0.123.
`L7I`: “normalised enrichment score” 1.36.
For `F8G`, “normalised enrichment score” read 0.526.
For `S2R`, “normalised enrichment score” read 0.984.
For `K4T`, “normalised enrichment score” read 0.713.
`D11L` — result for “normalised enrichment score”: 0.832.
For `D11H`, “normalised enrichment score” read 0.56.

Mixed results — method: cross-linking MS
Under interaction screen, `H2AC11 (Homo sapiens, UniProt P0C0S8)` is recorded as “cross-linked” (H3-4 (Homo sapiens, UniProt Q16695); hits only).
`SNRPC (Homo sapiens, UniProt P09234)` — result for cross-linked residues: “K22 to E14” (SNRPD3 (Homo sapiens, UniProt P62318); cell fractions; together with: DMTMM).
`PPFIA1 (Homo sapiens, UniProt Q13136)` — result for cross-linked residues: “K213 to K234” (CAPRIN1 (Homo sapiens, UniProt Q14444); cell fractions; together with: DSSO).

Some of these lines once more (sample 2):
For Tyrosine-protein kinase HCK (HCK, Homo sapiens, UniProt P08631); cell-free assay, competition with immobilised ligand: remaining binding read 100%.
It gave 92% for remaining binding (Receptor-type tyrosine-protein kinase FLT3 (FLT3, Homo sapiens, UniProt P36888, D835V/ITD); cell-free assay, competition with immobilised ligand).
